Assay results pooled from the literature.
A part holds a random share of what one study measured.

Series 1 — technique: protein binding microarray; molecule type: double-stranded DNA, one strand shown; medium: in vitro; tested at: not given; reference: not given; direction: higher = stronger binding
Target: Histone acetyltransferase KAT6A, both winged helices, GST fusion (KAT6A, Homo sapiens, UniProt Q92794, residues 1-181)
Setting: 8-mer, flanks averaged, mean of 2 arrays, mostly near background
Construct (chain): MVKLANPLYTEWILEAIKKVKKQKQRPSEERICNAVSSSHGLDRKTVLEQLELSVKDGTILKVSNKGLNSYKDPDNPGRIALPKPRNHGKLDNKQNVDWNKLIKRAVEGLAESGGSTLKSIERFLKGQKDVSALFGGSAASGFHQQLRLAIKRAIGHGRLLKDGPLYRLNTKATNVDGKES
| Strand | E-score |
| --- | --- |
| AATATCGT | -0.212 |
| ATTGCTGC | -0.0629 |
| CCAAAGCG | 0.255 |
| CAGTGCGA | -0.00541 |

Series 2 — technique: universal PBM; molecule type: double-stranded DNA, one strand shown; medium: in vitro; tested at: not given; direction: higher = stronger binding
Target: Sal-like protein 4, full length isoform B (SALL4, Homo sapiens, UniProt Q9UJQ4-2, residues 1-616)
Setting: 8-mer, flanks averaged, mean of replicates
Construct (chain): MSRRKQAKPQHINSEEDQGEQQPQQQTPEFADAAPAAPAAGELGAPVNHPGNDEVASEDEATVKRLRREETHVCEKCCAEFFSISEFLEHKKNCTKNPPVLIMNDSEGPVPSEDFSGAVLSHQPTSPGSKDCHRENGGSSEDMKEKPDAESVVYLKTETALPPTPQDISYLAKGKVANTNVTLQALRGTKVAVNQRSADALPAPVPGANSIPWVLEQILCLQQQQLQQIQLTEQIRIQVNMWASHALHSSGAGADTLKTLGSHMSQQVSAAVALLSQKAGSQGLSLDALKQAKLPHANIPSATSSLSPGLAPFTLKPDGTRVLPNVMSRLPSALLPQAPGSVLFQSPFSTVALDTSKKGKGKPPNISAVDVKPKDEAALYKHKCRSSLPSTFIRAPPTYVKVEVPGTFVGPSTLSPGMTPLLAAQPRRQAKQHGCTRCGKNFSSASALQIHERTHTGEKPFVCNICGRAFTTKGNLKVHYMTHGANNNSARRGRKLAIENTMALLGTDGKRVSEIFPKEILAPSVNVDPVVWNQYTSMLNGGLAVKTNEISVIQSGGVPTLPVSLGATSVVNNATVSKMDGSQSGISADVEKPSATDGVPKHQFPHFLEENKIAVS
| Strand | E-score |
| --- | --- |
| CATGTCAG | -0.0869 |
| AGTGGCAT | -0.0024 |
| AGTGAGGA | -0.0448 |
| ACGTGCTA | 0.169 |
| CCTTGCAA | -0.11 |
| CACTGTCA | -0.0374 |
| CTGGTGTC | -0.133 |

Series 3 — technique: protein-binding microarray; molecule type: double-stranded DNA, one strand shown; medium: in vitro; tested at: 940 nM top; setting: 60-bp whole probe; added: salmon DNA 0.4 mg/ml; reference: random background probes; direction: higher = stronger binding
Target: Interferon regulatory factor 5, full length, phosphomimetic (IRF5, Homo sapiens, UniProt Q13568-2, residues 1-514, S451D/S453D/S456D/S462D)
| Strand | fitted relative affinity [z-score] |
| --- | --- |
| GCCTAGCACTTAGATTTCAGTTTCGATTGGTGCTAGGTCTTGATTCGCTTGACGCTGCTG | 9.19 |
| GCCTAGCACGACGGTCTCGGTTTCGGGAAGTGCTAGGTCTTGATTCGCTTGACGCTGCTG | 6.87 |
| GCCTAGCACGACGGTTTCGGGTATCAGGACGTGCTAGTCTTGATTCGCTTGACGCTGCTG | 9.38 |
| GCCTAGCACGACAGTTTCCTTATCCTGACGTGCTAGGTCTTGATTCGCTTGACGCTGCTG | 2.7 |

Single results of other studies
| Substance | target | test | system | conditions | scale | endpoint | result |
| --- | --- | --- | --- | --- | --- | --- | --- |
| PhoQ, residues 284 288 289 292 302 303 SACGEM | PhoP, residues 12 14 15 18 19 SQCLL (Escherichia coli, UniProt P23836) | Sort-seq, item: YFP reporter | E. coli | PhoQ-PhoP variant library, added: 10 µM Mg2+ | reference: high Mg2+ state, higher = stronger signaling | fold induction | 13.2 |

Repeated from above (series 2):
| Strand | E-score |
| --- | --- |
| ACGTGCTA | 0.169 |
| CCTTGCAA | -0.11 |
